Published values of several laboratories.
Compare with care: the assays were run in different laboratories. Values joined by “and” are separate records of one study, mostly repeats; a detail may differ. ± gives the spread as reported.

SMILES = NC(=O)c1cnc2[nH]ccc2c1N[C@@H]1[C@@H]2CC3C[C@H]1C[C@@](O)(C3)C2; assay = flow cytometry; system = Caucasian healthy men, blood; conditions = oral, 60 mg single dose, 24 h; scale = reference: baseline; endpoint = total memory T-cell change; result = -0.02%
SMILES = OC(CCN1CCCCC1)(c1ccccc1)C1CC2C=CC1C2 (stereo not drawn); assay = resting-state EEG; system = healthy elderly humans; conditions = oral, 4 mg, eyes closed, LS mean; endpoint = EEG theta power, O2 Pz; result = 7.1 µV²
SMILES = Cn1cc([C@H]2C[C@H]3CSC(N)=N[C@@]3(c3ccc(F)cc3F)CO2)cn1; assay = refers to: Aβx-40; system = wild-type mouse, brain; conditions = subcutaneous, 50 mg/kg, 18 h; endpoint = brain Aβ40 level; result = 2.63 ng/g
SMILES = N#Cc1ccc2c(c1)[C@H]1CCCN(C(=O)c3ccc4[nH]cnc4c3)[C@H]1C2; system = human, plasma; conditions = 160 mg, day 15, 360 h; scale = reference: placebo and baseline; endpoint = change in 1.5-AHG; result = -3.3%
SMILES = CCCCC1(CCCC)CN(c2ccccc2)c2cc(SC)c(OCC(=O)N[C@@H](C(=O)NCC(=O)O)c3ccccc3)cc2S(=O)(=O)C1; assay = refers to: 7α-hydroxy-4-cholesten-3-one; system = human, plasma; conditions = 2.5 mg once daily, day 11; endpoint = plasma C4; result = 25.7 ng/mL
SMILES = COc1ccccc1C(=O)NCc1ccc(CNS(=O)(=O)c2ccc(C)cc2)cc1; assay = xylene-induced ear edema; system = mouse; conditions = intraperitoneal, 10 mg/kg; endpoint = ear edema; result = no effect
SMILES = C[C@H](NC(=O)c1c(C(F)F)nn(C)c1Oc1cccc(C(F)(F)F)c1)c1ccc(C(=O)O)cc1; assay = irRECIST; system = human, advanced tumours; conditions = 500 mg; scale = best overall response; endpoint = stable disease; result = 0%
SMILES = COc1cc(Nc2ncc3c(n2)-c2ccc(Cl)cc2C(c2c(F)cccc2OC)=NC3)ccc1C(=O)O; system = mouse, KT-10 Wilms tumour xenograft; conditions = 2.6 mg/kg; scale = direction not given; endpoint = median response score; result = 0
SMILES = Cc1n[nH]c2ccc(-c3cc(OC[C@@H](N)Cc4ccccc4)cnc3-c3ccoc3)cc12; assay = kinase binding, competitor, MIB/MS competition, refers to: YPK1; system = Candida albicans cell lysate; conditions = 10 µM; scale = reference: DMSO; endpoint = log2 fold change; result = -1.48
SMILES = Cc1nn(-c2nc3c(F)cc(F)cc3s2)c(O)c1C(c1ccc(C(F)(F)F)cc1)c1c(C)nn(-c2nc3c(F)cc(F)cc3s2)c1O; assay = refers to: pancreatic oedema; system = mouse, cerulein-induced acute pancreatitis; conditions = 25 mg/kg; scale = direction not given; endpoint = histology score; result = 2 and 0 and 1 and 3
SMILES = N#Cc1ccn2c(-c3ccncc3)c(-c3ccc(F)cc3)nc2c1; assay = kinase binding, competitor, MIB/MS competition, refers to: CDC7; system = Candida albicans cell lysate; conditions = 1 µM; scale = reference: DMSO; endpoint = log2 fold change; result = 0.313
SMILES = C[C@H]1C[C@H]2CSC(N)=N[C@@]2(c2nc(NC(=O)c3ccc(OC(F)F)cn3)cs2)CO1; system = healthy adults, fed, plasma; conditions = oral, 200 mg single dose, 48 h; scale = reference: baseline, placebo-adjusted; endpoint = total plasma Aβ change; result = -59.6%
SMILES = COc1ccccc1[C@H](Cn1c(=O)n(C(C)(C)C(=O)O)c(=O)c2c(C)c(-c3ncco3)sc21)OC1CCOCC1; assay = [1-13C]acetate infusion, isotopomer analysis; system = overweight or obese healthy men, plasma VLDL-TG palmitate; conditions = oral, 20 mg single dose, 1 h post-dose, with: oral fructose; endpoint = fractional hepatic DNL; result = 7.56 % new palmitate
SMILES = C[C@H](Oc1ccc(Br)cc1-c1ccon1)C(=O)O; assay = maximum voluntary grip contraction, handgrip dynamometry; system = healthy human; conditions = 100 mg, SAD; endpoint = difference from placebo; result = -2.03 kg
SMILES = c1ccc(-c2n[nH]cc2-c2ccnc3ccccc23)nc1; assay = kinase binding, competitor, MIB/MS competition, refers to: PBS2; system = Candida albicans cell lysate; conditions = 100 nM; scale = reference: DMSO; endpoint = log2 fold change; result = 1.24
SMILES = CN(C(=O)n1cnc(-c2ccc[n+]([O-])c2)c1)C1CCCCC1; system = mice, formalin paw test; conditions = 1 mg/kg, late phase, with: anandamide 5 mg/kg i.p.; scale = reference: vehicle, direction not given; endpoint = change in licking score; result = -77%
SMILES = CSCCNc1nc(SCCC(F)(F)F)nc2c1ncn2[C@@H]1O[C@H](COP(=O)(O)OP(=O)(O)C(Cl)(Cl)P(=O)(O)O)[C@@H](O)[C@H]1O; assay = platelet aggregation, light transmission aggregometry; system = human patients, platelet-rich plasma; conditions = dose not given, 3 h, with: TRAP 5 µM; endpoint = patients with IPA above 90%; result = 5.4%
SMILES = O=C(NC[C@H]1CN(c2ccc(N3CCOCC3=O)cc2)C(=O)O1)c1ccc(Cl)s1; system = human mild renal impairment, plasma; conditions = 10 mg, geometric mean, unit not given; scale = reference: baseline; endpoint = prothrombin time AUC(0-48h); result = 99.5
SMILES = CCO[C@H]1CCN(Cc2c(OC)cc(C)c3[nH]ccc23)[C@H](c2ccc(C(=O)O)cc2)C1; system = PNH patients, blood; conditions = oral, 50 mg then 200 mg, week 2, mean percent change; scale = reference: baseline; endpoint = PNH RBC clone size; result = 146%
SMILES = FC(F)(F)Oc1cccc(-c2cnc3ccc(-c4ccncc4)nn23)c1; assay = bioluminescence; system = mouse, MDA-MB-231-Luc xenograft; conditions = 30 mg/kg, day 14; endpoint = tumour growth; result = 185% and 337% and 199% and 232% and 130%
SMILES = CC(=O)Oc1cc2c(s1)CCN(C(C(=O)C1CC1)c1ccccc1F)C2 (stereo not drawn); assay = platelet aggregation, light transmittance aggregometry; system = human, platelet-rich plasma; conditions = 30 min, IPA above 90 %, with: TRAP 5 µM; scale = reference: patients; endpoint = patients with IPA above threshold; result = 0%
SMILES = Cn1cc(Nc2nccc(-c3ccc4c(c3)CN(C3COC3)CC[C@H]4NC(=O)c3cn(C(C)(C)C)nn3)n2)cn1; assay = refers to: Leukocyte Extravasation Signaling; system = splenic B cells, mouse; conditions = in vivo, 30 mg/kg, IgD-activated B cells; scale = reference: vehicle, positive = activation; endpoint = pathway activation z-score; result = 3.13
SMILES = CN(C)C(=O)Oc1cccc([N+](C)(C)C)c1; assay = neuromuscular block reversal; system = rat; conditions = dose not given, 3.5 (unit not given), with: cisatracurium; scale = reference: T1 twitch; endpoint = train-of-four ratio; result = 5.53
SMILES = CN(C)C(=O)c1cc2cnc(Nc3ccc(N4CCNCC4)cn3)nc2n1C1CCCC1; assay = RNA-seq GSEA, refers to: HALLMARK_COAGULATION; system = MB002 tumour; conditions = concentration not given, in vivo; scale = reference: vehicle, direction not given; endpoint = normalized enrichment score; result = -0.927
SMILES = CC1(C)CCC(c2ccc(Cl)cc2)=C(CN2CCN(c3ccc(C(=O)NS(=O)(=O)c4ccc(N[C@H](CCN5CCOCC5)CSc5ccccc5)c(S(=O)(=O)C(F)(F)F)c4)cc3)CC2)C1; assay = cell killing; system = primary canine neoplastic B cells, dog 40; conditions = 24 h; endpoint = EC50; result = 2.72 µM
SMILES = NCC(=O)Nc1cncc(-c2nn3c(=O)cc(N4CCNCC4)nc3s2)c1; assay = ADP-induced platelet aggregation, light transmission aggregometry; system = human stable CAD patients on aspirin, platelets ex vivo; conditions = 0.075 mg/kg, 240 min post dose, with: 20 µM ADP; scale = reference: placebo difference; endpoint = inhibition of platelet aggregation; result = 4.18%
SMILES = CO[C@H]1CC[C@H](N2C(=O)CNc3ncc(-c4ccc(C(C)(C)O)nc4)nc32)CC1; assay = flow cytometry; system = stimulated T cells, human, blood; conditions = 60 mg single dose, 1.5 h, median; scale = reference: baseline; endpoint = p4EBP1 change from baseline; result = -36.3%
SMILES = Cc1ccc(C(=O)Nc2ccc(CN3CCN(C)CC3)c(C(F)(F)F)c2)cc1C#Cc1cnc2cccnn12; assay = platelet aggregation; system = platelet-rich plasma; conditions = 1 µM, DMSO 130.6, with: collagen 2 mg/mL; endpoint = lag time; result = 237 s
SMILES = CC(C)[C@H](C(=O)Nc1ccc(C(=O)NO)cc1)c1ccccc1; assay = volumetric MRI; system = human, left foramen magnum tumour; conditions = dose not given, day 373; endpoint = tumour volume; result = 2.4 cm3
SMILES = O=C(O)CNC(=O)Cc1ccccc1; system = ventricular cardiomyocytes, C57BL/6 mouse; conditions = dose not given, 0.828 s; endpoint = sarcomere length; result = 1.64 µm
SMILES = COc1cc2cc(-c3ccc(CC(=O)Nc4cc(C(C)(C)C(F)(F)F)no4)cn3)cnc2cc1OC; system = human RET-altered advanced solid tumours; conditions = 75 mg, phase I other tumours, RECIST 1.1; endpoint = stable disease as best response; result = 30%
SMILES = CC(C)NCC(O)c1ccc(O)c(O)c1 (stereo not drawn); system = ventricular cardiomyocytes, C57BL/6 mouse; conditions = dose not given, 0.212 s; endpoint = sarcomere length; result = 1.5 µm
SMILES = NNC(=O)c1ccncc1; assay = ELISA; system = Mycobacterium marinum-infected mice, blood; conditions = intraduodenal, 10 mg/kg three times daily, 3 days post infection; endpoint = IL-1β level; result = 28 pg/mL and 28.9 pg/mL and 28.3 pg/mL
SMILES = C=CCn1c(=O)c2cnc(Nc3ccc(N4CCN(C)CC4)cc3)nc2n1-c1ccc2c(n1)[C@@](O)(CC)CC2; system = A-427, NOD/SCID mice, xenograft; conditions = oral, 150 mg/kg, intermittent, day 51; scale = reference: vehicle; endpoint = tumour volume difference; result = -317 ± 6.6 mm3
SMILES = COC[C@@H](c1ccc(C(F)(F)F)cc1)N1CCN(C2(C)CCN(C(=O)c3c(C)ncnc3C)CC2)C[C@@H]1C; system = human, HIV infected; conditions = dose not given, week 2, Cmin >54 ng/mL; endpoint = HIV-1 RNA decrease; result = 1.35 log10 copies/mL
SMILES = N#Cc1ccc2c(-c3ccncc3)c(-c3ccc(F)cc3)nn2c1; assay = kinase binding, competitor, MIB/MS competition, refers to: CKA1; system = Candida albicans cell lysate; conditions = 100 nM; scale = reference: DMSO; endpoint = log2 fold change; result = -0.589
SMILES = COc1ccc(Oc2cc(N(C)CCOc3ccc(CC4SC(=O)NC4=O)cc3)ncn2)cc1 (stereo not drawn); system = type 2 diabetes patients; conditions = 0.5 mg once daily, 12 weeks; scale = reference: baseline; endpoint = total cholesterol reduction; result = 13.7 mg/dL
SMILES = CCCCCCCCCCCC1NCCc2cc(O)c(O)cc21 (stereo not drawn); assay = ferrozine; system = cell-free; conditions = 100 µM, DMSO solvent; endpoint = Fe2+ chelation; result = 22.9 ± 4.27%
SMILES = COc1ncnn2ccc(-c3cnc4nc(C)n(Cc5nnc([C@@H](C)F)o5)c4c3)c12; system = Homo sapiens, relapsed or refractory AML or MDS; conditions = dose not given, sample A AML patients; endpoint = CRi rate; result = 8.3%
SMILES = Cc1ccc(NC(=O)c2ccnc(C(F)(F)F)c2)cc1-c1cc(OCCO)nc(N2CCOCC2)c1; system = MAPK-altered advanced solid tumour patients; conditions = dose not given, single-agent dose escalation; endpoint = partial response; result = 2.3%
SMILES = CN[C@@H]1COc2c(S(=O)(=O)NC(=O)Nc3c4c(cc5c3CCC5)CCC4)cnn2C1; assay = refers to: IL-18; system = human participants, whole blood ex vivo; conditions = 900 mg twice daily, multiple doses, 145 h, IL-18, circulating, adjusted for, with: LPS/ATP; scale = reference: baseline; endpoint = inhibition; result = 102%
SMILES = CC[C@@H]1[C@H](F)C(=O)N[C@@H]1COc1nccc2cc(C(N)=O)c(OC)cc12; assay = ATP-site probe binding, ActivX profiling, refers to: MST4, YSK1; system = THP-1 cell lysate; conditions = 0.01 mM, Lys2 site; endpoint = inhibition; result = 19.6%
SMILES = COc1cccc(C2NCCc3cc(O)c(O)cc32)c1 (stereo not drawn); assay = ferrozine; system = cell-free; conditions = 100 µM, DMSO solvent; endpoint = Fe2+ chelation; result = 92.4 ± 1.85%
SMILES = Cc1cc(-c2nc(C(=O)Nc3cc4oc(N5CCOCC5)nc4nc3N3CC[C@@H](O)C3)co2)ccn1; assay = immunohistochemistry, refers to: phospho-NF-κB; system = mouse, intracranial B16-F10 tumour; conditions = dose not given; scale = reference: total cells; endpoint = pNF-κB p65 positive cells; result = 4.3%
SMILES = N#Cc1ccc2c(c1)[C@H]1CCCN(C(=O)c3ccc4[nH]cnc4c3)[C@H]1C2; system = human clinical trial; conditions = oral, 240 mg once daily, at last treatment; endpoint = cortisol level; result = 297 nmol/L
